Measured values gathered from unrelated publications.
Each line is one published result; not all experiments were run side by side. Converted amounts (≈) assume the structure as drawn.
4'-phosphopantetheinyl transferase PptT: 4'-phosphopantetheinyl transferase PptT (Mycobacterium tuberculosis, UniProt O33336)
Chain of UniProt O33336 (whole entry, looked up): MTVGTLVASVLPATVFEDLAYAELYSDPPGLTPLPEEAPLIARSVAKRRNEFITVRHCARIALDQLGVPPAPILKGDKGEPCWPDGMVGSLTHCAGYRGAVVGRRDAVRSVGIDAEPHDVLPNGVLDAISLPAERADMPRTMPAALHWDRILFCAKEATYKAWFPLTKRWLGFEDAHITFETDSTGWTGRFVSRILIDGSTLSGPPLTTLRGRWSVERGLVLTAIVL
Chain of UniProt Q99755 (whole entry, looked up): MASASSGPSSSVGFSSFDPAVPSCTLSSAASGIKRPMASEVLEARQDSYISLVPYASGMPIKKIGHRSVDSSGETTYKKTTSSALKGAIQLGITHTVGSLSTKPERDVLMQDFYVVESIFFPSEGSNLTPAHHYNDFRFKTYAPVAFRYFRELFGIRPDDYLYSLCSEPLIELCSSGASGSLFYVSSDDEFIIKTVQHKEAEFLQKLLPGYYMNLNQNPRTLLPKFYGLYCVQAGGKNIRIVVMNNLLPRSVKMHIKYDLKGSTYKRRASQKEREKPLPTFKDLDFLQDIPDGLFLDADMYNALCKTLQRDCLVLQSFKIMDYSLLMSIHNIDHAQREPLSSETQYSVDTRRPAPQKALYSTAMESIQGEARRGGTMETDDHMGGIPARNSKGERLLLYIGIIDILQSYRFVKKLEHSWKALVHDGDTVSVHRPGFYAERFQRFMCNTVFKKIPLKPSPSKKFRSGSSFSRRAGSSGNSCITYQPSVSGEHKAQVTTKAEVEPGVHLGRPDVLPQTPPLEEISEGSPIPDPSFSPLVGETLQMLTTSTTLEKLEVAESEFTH
Chain of UniProt Q9UBE8 (whole entry, looked up): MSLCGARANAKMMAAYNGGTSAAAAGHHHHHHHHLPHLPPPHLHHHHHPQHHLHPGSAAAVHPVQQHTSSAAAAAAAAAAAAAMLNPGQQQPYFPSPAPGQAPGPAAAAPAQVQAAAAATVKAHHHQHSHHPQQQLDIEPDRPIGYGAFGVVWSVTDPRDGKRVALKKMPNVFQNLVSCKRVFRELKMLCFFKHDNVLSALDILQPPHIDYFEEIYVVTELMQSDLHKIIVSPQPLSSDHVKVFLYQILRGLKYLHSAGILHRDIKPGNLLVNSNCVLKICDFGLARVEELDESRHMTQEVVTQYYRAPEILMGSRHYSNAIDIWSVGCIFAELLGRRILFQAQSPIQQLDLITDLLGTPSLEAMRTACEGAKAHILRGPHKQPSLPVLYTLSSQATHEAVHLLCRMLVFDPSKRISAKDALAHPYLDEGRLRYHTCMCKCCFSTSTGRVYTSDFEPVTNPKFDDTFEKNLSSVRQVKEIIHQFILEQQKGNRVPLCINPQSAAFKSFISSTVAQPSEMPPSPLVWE
Chain of UniProt Q96Q40 (whole entry, looked up): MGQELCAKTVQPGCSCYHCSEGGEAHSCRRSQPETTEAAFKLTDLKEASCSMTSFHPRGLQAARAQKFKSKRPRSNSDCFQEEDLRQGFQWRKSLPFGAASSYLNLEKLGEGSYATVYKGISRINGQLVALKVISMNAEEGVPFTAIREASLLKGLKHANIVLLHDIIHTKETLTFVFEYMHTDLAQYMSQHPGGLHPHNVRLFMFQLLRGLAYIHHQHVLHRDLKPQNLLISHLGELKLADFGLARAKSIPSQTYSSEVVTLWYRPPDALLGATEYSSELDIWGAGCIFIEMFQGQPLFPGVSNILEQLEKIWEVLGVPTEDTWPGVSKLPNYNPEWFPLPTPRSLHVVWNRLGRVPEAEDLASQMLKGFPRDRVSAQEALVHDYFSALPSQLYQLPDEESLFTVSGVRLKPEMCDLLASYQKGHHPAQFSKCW
Chain of UniProt Q6ZN16 (whole entry, looked up): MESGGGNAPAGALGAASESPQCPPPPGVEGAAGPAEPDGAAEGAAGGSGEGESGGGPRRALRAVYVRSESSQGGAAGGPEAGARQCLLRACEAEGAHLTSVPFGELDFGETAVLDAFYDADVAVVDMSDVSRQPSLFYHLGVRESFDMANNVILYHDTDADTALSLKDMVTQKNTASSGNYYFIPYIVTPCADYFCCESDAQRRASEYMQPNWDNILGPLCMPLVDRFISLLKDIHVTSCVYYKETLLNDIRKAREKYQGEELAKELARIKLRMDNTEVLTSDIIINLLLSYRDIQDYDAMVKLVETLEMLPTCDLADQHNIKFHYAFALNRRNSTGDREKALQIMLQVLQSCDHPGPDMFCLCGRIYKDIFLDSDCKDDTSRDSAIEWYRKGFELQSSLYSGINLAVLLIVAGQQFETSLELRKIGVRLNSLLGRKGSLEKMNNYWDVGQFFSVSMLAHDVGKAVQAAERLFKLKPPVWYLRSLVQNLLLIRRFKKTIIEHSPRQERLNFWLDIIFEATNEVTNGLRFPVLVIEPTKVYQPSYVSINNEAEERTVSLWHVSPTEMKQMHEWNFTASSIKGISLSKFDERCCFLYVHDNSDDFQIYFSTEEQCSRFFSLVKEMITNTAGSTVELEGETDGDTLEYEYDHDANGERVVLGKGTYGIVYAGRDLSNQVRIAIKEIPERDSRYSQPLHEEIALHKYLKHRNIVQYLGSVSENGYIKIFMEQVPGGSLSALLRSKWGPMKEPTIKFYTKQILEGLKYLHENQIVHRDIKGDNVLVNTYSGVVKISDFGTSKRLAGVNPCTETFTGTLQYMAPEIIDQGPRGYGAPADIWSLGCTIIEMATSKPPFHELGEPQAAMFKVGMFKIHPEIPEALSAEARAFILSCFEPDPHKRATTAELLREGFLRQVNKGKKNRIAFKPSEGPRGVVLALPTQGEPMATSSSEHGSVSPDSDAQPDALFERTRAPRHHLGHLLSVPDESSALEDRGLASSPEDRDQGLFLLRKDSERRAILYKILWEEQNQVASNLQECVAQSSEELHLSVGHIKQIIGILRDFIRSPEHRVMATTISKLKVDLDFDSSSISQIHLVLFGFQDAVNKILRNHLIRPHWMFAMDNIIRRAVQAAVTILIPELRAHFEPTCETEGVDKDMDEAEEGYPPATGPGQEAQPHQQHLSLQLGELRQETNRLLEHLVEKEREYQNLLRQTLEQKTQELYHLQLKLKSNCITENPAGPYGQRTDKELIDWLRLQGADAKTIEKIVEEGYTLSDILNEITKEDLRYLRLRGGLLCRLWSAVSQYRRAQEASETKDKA

Compound | tested on | assay | test system | conditions | measurement | value
CC(C)C[C@H]1NC(=O)[C@H]([C@@H](C)O)NC(=O)[C@@H](CCCN)NC(=O)[C@H](CCCNC(=N)N)NC(=O)[C@@H](Cc2ccccc2)NC1=O | Balamuthia mandrillaris | parasite growth, ATP luminescence |  |  | IC50 | > 16 µg/mL
COC(=O)c1cc(-c2cccc(NC(=O)Nc3ccccc3)c2)on1 | Mycobacteroides abscessus | microbial growth, broth dilution | ATCC19977 | 48 h | MIC | > 64 µg/mL
C#Cc1ccc(C(=O)NN=Cc2c(O)cccc2C#C)cc1 | Aspergillus fumigatus | microbial growth |  | 48 h, pH 6.5 | MIC80 | > 32 µg/mL
Oc1c(Br)cc(Br)cc1-c1[nH]c(Br)c(Br)c1Br | Acinetobacter baumannii | microbial growth | ATCC19606 |  | MIC | 8 µM
O=c1ccc2nc3ccc(OCc4ccc([N+](=O)[O-])o4)cc3oc-2c1 | Enterobacter cloacae | microbial growth |  | 24 h | MIC | > 32 µg/mL
O=C(NNc1cc(F)ccc1F)c1nnc(C23CC4CC(CC(C4)C2)C3)o1 | Fusarium oxysporum | microbial growth |  | 50 µg/mL | inhibition | 100%
CC(C)[C@@H]1NC(=O)[C@@H](Cc2ccccc2)NC(=O)[C@H](Cc2ccccc2)NC(=O)[C@@H]([C@H](C)O)NC(=O)[C@H]([C@@H](C)O)NC(=O)[C@@H](CCCNC(=N)N)NC1=O | Balamuthia mandrillaris | parasite growth, ATP luminescence |  |  | IC50 | > 16 µg/mL
COc1ccc(Nc2nn3c(-c4ccccc4)ccnc3c2C(=O)Nc2ccc(Cl)cc2)cc1 | A549 | cell growth or viability, MTT |  | 6.25 µg/mL, 48 h, serum-free | viability | 92.2%
N.N.[Cl][Pt][Cl] | Z-138 | cell growth or viability, ATP luminescence |  | 72 h | IC50 | 760 nM
Cc1ccc(-c2cc3c(c(OCC4CCCN(C)C4)c2)OCCN(C(=O)Cc2c(C)noc2C)C3)s1 (stereo not shown) | Leishmania mexicana | parasite growth |  | intracellular, amastigote | EC50 | ~2000 nM
O=C(NCCc1ncc(C(F)(F)F)cc1Cl)c1ccccc1C(F)(F)F | Sclerotinia sclerotiorum | microbial growth |  | 50 µg/mL | inhibition | 46.5%
C[N+]1=C2C=C(N)C(=O)c3[nH]cc(c32)CC1 | Babesia divergens | parasite growth, SYBR Green |  | 60 h, blood stage | IC50 | 185 nM
CC(C)[C@@H]1NC(=O)[C@@H](CCCCN)NC(=O)[C@H]([C@@H](C)O)NC(=O)[C@@H](CCCCN)NC(=O)[C@H](Cc2c[nH]c3ccccc23)NC(=O)[C@@H](C)NC(=O)[C@@H](C(C)C)NC(=O)[C@@H](C)NC(=O)[C@H](Cc2c[nH]c3ccccc23)NC(=O)[C@@H](Cc2c[nH]c3ccccc23)NC1=O | Balamuthia mandrillaris | parasite growth, ATP luminescence |  |  | IC50 | 7.82 µg/mL
O=C(NNc1ccc(Cl)c(Cl)c1)c1nnc(CC23CC4CC(CC(C4)C2)C3)o1 | Fusarium oxysporum | microbial growth |  |  | EC50 | > 50 µg/mL
NCCCC[C@H]1NC(=O)[C@H](Cc2ccccc2)NC(=O)[C@H](Cc2c[nH]c3ccccc23)NC(=O)[C@@H](Cc2ccccc2)NC(=O)[C@H](Cc2ccccc2)NC(=O)[C@@H](CCCN)NC(=O)[C@H](CCCN)NC1=O | Balamuthia mandrillaris | parasite growth, ATP luminescence |  |  | IC50 | 3.67 µg/mL
C#Cc1cccc(O)c1C=NNC(=O)c1ccc(Br)cc1Br | Aspergillus fumigatus | microbial growth |  | 48 h, pH 6.5 | MIC80 | 8 µg/mL (≈ 19 µM)
CC(=O)N1CCN(c2ccc(OCC3COC(Cn4ccnc4)(c4ccc(Cl)cc4Cl)O3)cc2)CC1 (stereo not shown) | Candida albicans | microbial killing, broth dilution | SP3903 | 48 h | MFC | > 64 µM
C#CC[C@@H]1NC(=O)[C@@H](CCCNC(=N)N)NC(=O)[C@H]([C@@H](C)O)NC(=O)[C@@H](CCCN)NC(=O)[C@H](Cc2ccccc2)NC(=O)[C@@H](Cc2ccccc2)NC1=O | Balamuthia mandrillaris | parasite growth, ATP luminescence |  |  | IC90 | > 20000 nM
N=C(N)c1ccc(OCCCCCOc2ccc(C(=N)N)cc2)cc1 | Leishmania donovani | parasite growth | THP-1 | intracellular, amastigote | IC50 | 3 µg/mL
[2H]c1c([2H])c([C@]2([2H])CCCN2C(=O)C(C)(C)Oc2ccc3cn[nH]c3c2)c([2H])c([2H])c1C([2H])([2H])[2H] | Serine/threonine-protein kinase NLK (NLK, Homo sapiens, UniProt Q9UBE8) | binding, competition with immobilised ligand |  | 1 µM | remaining binding | 81%
CO/C=C(/C(=O)OC)c1ccccc1Oc1cc(Oc2ccccc2C#N)ncn1 | Fusarium oxysporum | microbial growth |  |  | EC50 | > 50 µg/mL
COc1ccc(Nc2nn3c(-c4ccccc4)ccnc3c2C(=O)Nc2ccccc2)cc1 | A549 | cell growth or viability, MTT |  | 25 µg/mL, 48 h, serum-free | viability | 62.2%
Nc1ncc(-c2nc(N3CCOCC3)nc(N3CCOCC3)n2)c(C(F)F)n1 | Phosphatidylinositol 4-phosphate 5-kinase type-1 alpha (PIP5K1A, Homo sapiens, UniProt Q99755) | binding, competition with immobilised ligand |  | 10 µM | remaining binding | 100%
Nc1ncnc2c([C@@H]3N[C@H](CO)[C@@H](O)[C@H]3O)c[nH]c12 | human respiratory syncytial virus | viral replication, inhibitor | MA104 | 8.9 µM | inhibition | 36.9%
Cc1nn(C)cc1-c1nc2c(N3CCN(Cc4ccc(Cl)cc4)CC3)c(Cl)cnc2[nH]1 | Mitogen-activated protein kinase kinase kinase 15 (MAP3K15, Homo sapiens, UniProt Q6ZN16) | binding, competition with immobilised ligand |  | 1 µM | remaining binding | 66%
COC(=O)c1cc(-c2cccc(NC(=O)Nc3cccc(C#N)c3)c2)on1 | Acinetobacter baumannii | microbial growth, broth dilution | BAA1605 |  | MIC | > 64 µg/mL

Compound | tested on | assay | test system | conditions | measurement | value
C#Cc1ccc(C=NNC(=O)c2ccc(COCCC)cc2)c(O)c1 | Aspergillus fumigatus | microbial growth |  | 48 h, pH 6.5 | MIC80 | > 16 µg/mL
O=C(NNc1cccc(Cl)c1)c1nnc(C23CC4CC(CC(C4)C2)C3)o1 | Fusarium oxysporum | microbial growth |  | 50 µg/mL | inhibition | 100%
C#Cc1ccc(C(=O)NN=Cc2ccc(C#C)cc2O)cc1 | Aspergillus fumigatus | microbial growth |  | 48 h, pH 6.5 | MIC80 | > 16 µg/mL
O=C(NNc1ccc(Cl)cc1)c1nnc(C23CC4CC(CC(C4)C2)C3)o1 | Fusarium oxysporum | microbial growth |  | 50 µg/mL | inhibition | 100%
CC(C)C[C@@H]1NC(=O)CNC(=O)[C@@H](Cc2ccccc2)NC(=O)[C@H](CCCCN)NC(=O)[C@@H](CCCN)NC(=O)[C@@H](C(C)C)NC1=O | Balamuthia mandrillaris | parasite growth, ATP luminescence |  |  | IC90 | > 16 µg/mL
O=C(NNc1cc(F)ccc1F)c1nnc(CC23CC4CC(CC(C4)C2)C3)o1 | Fusarium oxysporum | microbial growth |  | 50 µg/mL | inhibition | 100%
Cc1sc2c(c1C)C(c1ccc(Cl)cc1)=N[C@@H](CC(=O)OC(C)(C)C)c1nnc(C)n1-2 | OCI-Ly1 | cell growth or viability, ATP luminescence |  | 0.5 µM, 5 days | viability | 20.5%
C#Cc1ccc(C=NNC(=O)c2ccc(Br)cc2Br)c(O)c1 | Aspergillus fumigatus | microbial growth |  | 48 h, pH 6.5 | MIC80 | ≤ 0.5 µg/mL
COC(=O)c1cc(-c2cccc(NC(=O)Nc3ccc(C(F)(F)F)cc3)c2)on1 | Mycobacteroides abscessus | microbial growth, broth dilution | ATCC19977 | 48 h | MIC | > 64 µg/mL
C[C@@H](O)[C@@H]1NC(=O)[C@H](CCCNC(=N)N)NC(=O)[C@@H](Cc2ccccc2)NC(=O)[C@H](Cc2ccccc2)NC(=O)CNC1=O | Balamuthia mandrillaris | parasite growth, ATP luminescence |  |  | IC50 | > 16 µg/mL
C[C@@H]1[C@H](O)[C@@H](C)/C=C/C=C/C=C/C=C/C=C/C=C/C=C/[C@H](O[C@@H]2O[C@H](C)[C@@H](O)[C@H](N)[C@@H]2O)C[C@@H]2O[C@](O)(C[C@@H](O)C[C@@H](O)[C@H](O)CC[C@@H](O)C[C@@H](O)CC(=O)O[C@H]1C)C[C@H](O)[C@H]2C(=O)O | Leishmania donovani | parasite growth, resazurin |  | 72 h, promastigote | IC50 | 0.16 µg/mL
COC(=O)c1cc(-c2cccc(NC(=O)Nc3ccc(Cl)c(Cl)c3)c2)on1 | Mycobacteroides abscessus | microbial growth, broth dilution | ATCC19977 | 48 h | MIC | > 64 µg/mL
CC(C)[C@H]1NC(=O)[C@H](Cc2ccccc2)NC(=O)CNC(=O)[C@@H](Cc2c[nH]c3ccccc23)NC(=O)[C@H](CCCCN)NC(=O)[C@@H](CCCN)NC1=O | Balamuthia mandrillaris | parasite growth, ATP luminescence |  |  | IC50 | > 16 µg/mL
Oc1c(Cl)cc(Cl)cc1-c1[nH]c(Cl)c(Cl)c1Cl | Shigella sonnei | microbial growth | ATCC25931 |  | MIC | 8 µM
O=c1c2cc(Cl)ccc2[nH]c(=S)n1Cc1ccncc1 | 4'-phosphopantetheinyl transferase PptT | enzyme activity, inhibitor, FP |  |  | IC50 | 1620 nM
C[N+]1=C2C=C(N/C=C/c3ccc(O)cc3)C(=O)c3[nH]cc(c32)CC1 | Babesia divergens | parasite growth, SYBR Green |  | 60 h, blood stage | IC50 | 56.3 nM
Nc1nc(N)nc(Nc2ccc([As]3SCC(CO)S3)cc2)n1 (stereo not shown) | Trypanosoma brucei | parasite growth, resazurin | RHODESIENSE STIB900 |  | IC50 | 30 nM
COC(=O)c1cc(-c2cccc(NC(=O)Nc3ccc(F)cc3)c2)on1 | Mycobacteroides abscessus | microbial growth, broth dilution | ATCC19977 | 48 h | MIC | > 64 µg/mL
C#Cc1ccc(C=NNC(=O)c2ccc(COC)cc2)c(O)c1 | Aspergillus fumigatus | microbial growth |  | 48 h, pH 6.5 | MIC80 | 1 µg/mL (≈ 3.24 µM)
COC(=O)c1cc(-c2cccc(NC(=S)Nc3ccc(Cl)cc3)c2)on1 | Mycobacteroides abscessus | microbial growth, broth dilution | ATCC19977 | 48 h | MIC | > 64 µg/mL
Cc1ccc(NNC(=O)c2nnc(CC34CC5CC(CC(C5)C3)C4)o2)cc1 | Fusarium oxysporum | microbial growth |  |  | EC50 | > 12.5 µg/mL
COC(=O)c1cc(-c2cccc(NC(=S)Nc3ccc(F)c(Cl)c3)c2)on1 | Acinetobacter baumannii | microbial growth, broth dilution | BAA1605 |  | MIC | > 64 µg/mL
COc1ncccc1-c1cnn2ccc(N3CCN(C(=O)OC(C)C)CC3)nc12 | Cyclin-dependent kinase 15 (CDK15, Homo sapiens, UniProt Q96Q40) | binding, competition with immobilised ligand |  | 1 µM | remaining binding | 100%
C#Cc1cc(O)c(C=NNC(=O)c2ccc(Br)c(Br)c2)cc1C#C | Aspergillus fumigatus | microbial growth |  | 48 h, pH 6.5 | MIC80 | 8 µg/mL (≈ 17.9 µM)
COC(=O)c1cc(-c2cccc(NC(=O)Nc3ccccc3F)c2)on1 | Acinetobacter baumannii | microbial growth, broth dilution | BAA1605 |  | MIC | > 64 µg/mL
COCC(=O)OCc1cc2[nH]c(=S)n(Cc3cccnc3)c(=O)c2cc1Cl | 4'-phosphopantetheinyl transferase PptT | enzyme activity, inhibitor, FP |  |  | IC50 | 6860 nM

Repeated from above:
Compound | tested on | assay | test system | conditions | measurement | value
Cc1nn(C)cc1-c1nc2c(N3CCN(Cc4ccc(Cl)cc4)CC3)c(Cl)cnc2[nH]1 | Mitogen-activated protein kinase kinase kinase 15 (MAP3K15, Homo sapiens, UniProt Q6ZN16) | binding, competition with immobilised ligand |  | 1 µM | remaining binding | 66%
Cc1ccc(-c2cc3c(c(OCC4CCCN(C)C4)c2)OCCN(C(=O)Cc2c(C)noc2C)C3)s1 (stereo not shown) | Leishmania mexicana | parasite growth |  | intracellular, amastigote | EC50 | ~2000 nM
COc1ccc(Nc2nn3c(-c4ccccc4)ccnc3c2C(=O)Nc2ccccc2)cc1 | A549 | cell growth or viability, MTT |  | 25 µg/mL, 48 h, serum-free | viability | 62.2%
CC(C)C[C@H]1NC(=O)[C@H]([C@@H](C)O)NC(=O)[C@@H](CCCN)NC(=O)[C@H](CCCNC(=N)N)NC(=O)[C@@H](Cc2ccccc2)NC1=O | Balamuthia mandrillaris | parasite growth, ATP luminescence |  |  | IC50 | > 16 µg/mL
COC(=O)c1cc(-c2cccc(NC(=O)Nc3ccc(F)cc3)c2)on1 | Mycobacteroides abscessus | microbial growth, broth dilution | ATCC19977 | 48 h | MIC | > 64 µg/mL
